Published values gathered from unrelated publications.
Lines come from different studies, so protocols differ. ± marks the error that the study gave.

SMILES	test	system	conditions	Vz/F
CCn1c(=O)c2c(nc(/C=C/c3ccc(OC)c(OC)c3)n2C)n(CC)c1=O		healthy human, plasma	oral, 40 mg single dose, arithmetic mean, with: rifampin 600 mg/day steady state	925 L
CCCS(=O)(=O)N[C@H]1C[C@@H](N(C)c2ncnc3[nH]ccc23)C1		human, normal hepatic function	oral, 200 mg, single dose, geometric mean	211 L
C=CC(=O)N1CCC([C@@H]2CCNc3c(C(N)=O)c(-c4ccc(Oc5ccccc5)cc4)nn32)CC1		human	oral, 480 mg single dose, mean	2840 L
CC(C)NC[C@@H](C(=O)N1CCN(c2ncnc3c2[C@H](C)C[C@H]3O)CC1)c1ccc(Cl)cc1		human, Mild hepatic function (Child-Pugh), plasma	oral, 100 mg single dose, geometric mean	20200 L
CNC(=O)c1c(C)oc2cc(Oc3ncnc4cc(OC)c(OC)cc34)ccc12		human, plasma	oral, 5 mg, fasted	47 L
CC[C@H](C)[C@@H]1NC(=O)[C@H](CCCNC(=N)N)NC(=O)[C@H](CC(=O)O)NC(=O)[C@H](CC(C)C)NC(=O)[C@H](CCCCN)NC(=O)[C@H](CC(C)C)NC(=O)CNC(=O)[C@H](Cc2ccccc2)NC(=O)[C@@H](NC(=O)CNC(=O)[C@H](CCCCN)NC(=O)[C@H](CO)NC(=O)[C@H](CC(C)C)NC(=O)CNC(=O)[C@H](CCCCN)NC(=O)[C@H](CCCCN)NC(=O)[C@H](CC(N)=O)NC(=O)[C@H](C)NC(=O)CNC(=O)[C@H](CCCCN)NC(=O)[C@H](Cc2ccc(O)cc2)NC(=O)[C@H](CCCCN)NC(=O)[C@H](CCCNC(=N)N)NC(=O)[C@H](C)NC(=O)[C@H](CC(N)=O)NC(=O)[C@@H]2CCCN2C(=O)[C@H](Cc2c[nH]cn2)NC(=O)[C@H](CCC(=O)O)NC(=O)[C@H](CCC(N)=O)NC(=O)CNC(=O)[C@@H]2CCCN2)CSSC[C@@H](C(=O)O)NC(=O)CNC(=O)[C@H](CC(C)C)NC(=O)CNC(=O)[C@H](CO)NC(=O)[C@H](CCSC)NC(=O)[C@H](CO)NC(=O)CNC1=O	ECLA	human, plasma	subcutaneous, 15 µg/kg once daily, day 1	2.88 L/kg
COc1cc2nccc(Oc3ccc(NC(=O)NC4CC4)c(Cl)c3)c2cc1C(N)=O		human, plasma	oral, 5 mg, arithmetic mean, with: ketoconazole 400 mg/day	313 L
O=C(c1cccnc1-c1ccncc1)N1CCC(O)(Cc2ccccc2)CC1		healthy human, plasma	oral, 300 mg once daily, day 1, arithmetic mean	1180 L
CCc1cc(/C(C)=N/OCc2ccc(C3CCCCC3)c(C(F)(F)F)c2)ccc1CN1CC(C(=O)O)C1		healthy human, plasma	oral, 4 mg, geometric mean, with: fluconazole steady state	162 L
C=CC(=O)N1CCC(CNc2ncnc(N)c2-c2ccc(Oc3ccccc3)cc2)CC1		human, plasma	oral, 500 mg single dose, geometric mean	1480 L
CCOc1ccc(Cc2cc([C@]34OC[C@](CO)(O3)[C@@H](O)[C@H](O)[C@H]4O)ccc2Cl)cc1		human, type 2 diabetes, moderate renal impairment, plasma	oral, 15 mg	228 L
CCOc1c([C@H](C)n2nc(C)c3c(N)ncnc32)cc(Cl)c(F)c1[C@@H]1CNC(=O)C1		healthy fasted humans, plasma	oral, 20 mg	63 ± 20.7 L

Excerpt of the above:
SMILES	test	system	conditions	Vz/F
COc1cc2nccc(Oc3ccc(NC(=O)NC4CC4)c(Cl)c3)c2cc1C(N)=O		human, plasma	oral, 5 mg, arithmetic mean, with: ketoconazole 400 mg/day	313 L
